Measurements of several laboratories.
Compare with care: the assays were run in different laboratories.
Target: TRAF2 and NCK-interacting protein kinase (TNIK, Homo sapiens, UniProt Q9UKE5)

NC(=O)C[C@H]1CCc2sc3ncnc(O[C@H]4CC[C@H](N5CCOCC5)CC4)c3c21 — inhibition (enzyme activity, inhibitor; 10 µM): 26%
Nc1ncc(-c2cc(-c3cnn(CC(F)(F)F)c3)ncc2F)nc1C(=O)NC1CNCC(F)C1 (stereo not shown) — remaining activity (enzyme activity; 1 µM; reference: DMSO control): 91.5%
CCN1CCN(Cc2ccc(NC(=O)c3ccc(C)c(NC(=O)c4cncc(-c5cnn(C)c5)c4)c3)cc2C(F)(F)F)CC1 — remaining binding (binding, competition with immobilised ligand; 1 µM): 51%
COc1c(Cl)cccc1Nc1c(-c2ccncc2C#C[C@@]2(C)CCCN2C(=O)/C=C/CN(C)C)[nH]c2c1C(=O)NCC2 — remaining binding (binding, competition with immobilised ligand; 3 µM): 25%
C=CC(=O)N1CCc2ccc(-n3c(=O)ccc4cnc5ccc(-c6cnn(C)c6)cc5c43)cc21 — remaining binding (KINOMEscan; 1 µM; reference: DMSO control): 83%
C=CC(=O)Nc1cccc(-c2cnc3[nH]cc(C(=O)NC(C)(C)C)c3n2)c1 — inhibition (enzyme activity, inhibitor; 0.1 µM): 35%
Cc1cnc2nc1Nc1cccc(c1)COC/C=C/COCc1cc(ccc1OCCN1CCOCC1)N2 — remaining binding (binding, competition with immobilised ligand; 0.1 µM): 77%
CCN1CCN(Cc2ccc(C(=O)Nc3ccc(C)c(NCc4cnc5[nH]ccc5c4OC)c3)cc2C(F)(F)F)CC1 — remaining binding (binding, competition with immobilised ligand; 1 µM): 15%
CN1CC[C@@H](COc2cnc(C#N)cc2-c2ccn3nc(NC(=O)C4CC4)cc3c2)C1 — inhibition (enzyme activity, inhibitor; 1 µM): 45%
C=CC(=O)N1Cc2nc(-c3cc(-c4cc(Cl)cnc4Cl)c(F)cc3F)n(-c3ccncn3)c2C1 — inhibition (cell-free assay, inhibitor; 1 µM): 12.9%
Cc1cccc(O[C@H]2CCC[C@@H](C(C)CNCc3ccncc3)C2)c1 (relative stereo) — inhibition (enzyme activity, inhibitor; 1 µM): 0%
COc1cc(Nc2nc(C)cc(-c3cnn4nc(OC)ccc34)n2)cc(C(F)(F)F)c1 — remaining binding (binding, competition with immobilised ligand; 1 µM): 74%
Cc1ccc(-c2c(/C=C(\C#N)C(=O)NC(C)C)n(CCCO)c3ncnc(N)c23)cc1 — remaining binding (cell-free assay, competition with immobilised ligand; 1 µM): 83%

Repeated from above:
Cc1cccc(O[C@H]2CCC[C@@H](C(C)CNCc3ccncc3)C2)c1 (relative stereo) — inhibition (enzyme activity, inhibitor; 1 µM): 0%
